Results collected from several papers.
Numbered parts are unrelated; each lists some results of a single study. Changes are numbered by the printed parent chain.

Set 1 — technique: protein-binding microarray; molecule type: double-stranded DNA, one strand shown; sample: in vitro; concentration: 2540 nM top; setting: 60-bp whole probe; together with: salmon DNA 0.4 mg/ml; relative to: random background probes; reading: higher = stronger binding; all sequences stand within: GCCTAGCAC … GTCTTGATTCGCTTGACGCTGCTG
Target: Interferon regulatory factor 3, full length, phosphomimetic (IRF3, Homo sapiens, UniProt Q14653, residues 1-427, S386D/S396D/S398D/S402D/T404D/S405D)
Target sequence (chain): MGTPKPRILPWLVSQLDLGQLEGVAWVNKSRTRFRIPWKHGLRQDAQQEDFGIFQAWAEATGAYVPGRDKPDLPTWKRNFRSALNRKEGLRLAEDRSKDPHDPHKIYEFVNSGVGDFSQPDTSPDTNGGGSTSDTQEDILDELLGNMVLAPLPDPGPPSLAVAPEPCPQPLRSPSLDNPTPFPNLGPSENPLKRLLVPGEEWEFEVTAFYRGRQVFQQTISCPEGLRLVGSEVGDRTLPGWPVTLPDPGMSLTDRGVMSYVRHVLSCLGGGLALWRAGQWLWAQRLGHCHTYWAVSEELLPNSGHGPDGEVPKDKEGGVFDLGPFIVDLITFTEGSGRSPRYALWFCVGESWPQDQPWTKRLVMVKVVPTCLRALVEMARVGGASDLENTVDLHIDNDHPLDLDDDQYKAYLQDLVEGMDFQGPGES
Oligonucleotide	fitted relative affinity [z-score]
CATCTCGGGCCGCCGGGCCGGTGCTAG	2.25
GACGGGCTCGGTCTCGGGACGTGCTAG	-0.402
GTGGAAATCAGTATGTTCCCGTGCTAG	0.129
GACGGTCTCCGACTGCTGACGTGCTAG	0.712
GACGATTTCGGGTTTCGAGTCGTGCTA	3.15
GACGGTTTCGGGTATCGGTACGTGCTA	4.98
GTAGGTCTCCTTATCCTTTAGTGCTAG	3.09
GACGGTTCCGGTTTCGGGATGTGCTAG	6.05
TTAGATTTCGGGACTGGATTAGTGCTA	1.45
GACGGTTTCCTTCTGCTGACGTGCTAG	6.87
GACGGTCTCGTACTGGGGACGTGCTAG	0.0899
TTAGATATCAGACTGGAGTAGTGCTAG	0.113
TTAGGAATCGGGTTTCGGTTAGTGCTA	2.97
AGAAACTTTTTTCTGATTGAGTGCTAG	1.44
GACGGTATCGGGTATGGGGACGTGCTA	1.53
TTAGGACTGGACACTCGGTTAGTGCTA	-0.825
TTAGGGATCGGGTATCGGTTAGTGCTA	0.777
CTTTCTTTGCTTCACCCTGGGTGCTAG	5.1
TTAGAACTGAGTCTCGATTTGTGCTAG	-0.189
TCATTTTTTTTCTTTAAACTGTGCTAG	1.55

Set 2 — target: CCNA1, cyclin fold, Cln2 fusion (human); technique: yeast growth competition, sequencing; sample: yeast; setting: weak parent motif; relative to: not given; reading: higher = stronger binding
Starting sequence: RB1 docking peptide (human); PKPLKKLRFDIEG; partner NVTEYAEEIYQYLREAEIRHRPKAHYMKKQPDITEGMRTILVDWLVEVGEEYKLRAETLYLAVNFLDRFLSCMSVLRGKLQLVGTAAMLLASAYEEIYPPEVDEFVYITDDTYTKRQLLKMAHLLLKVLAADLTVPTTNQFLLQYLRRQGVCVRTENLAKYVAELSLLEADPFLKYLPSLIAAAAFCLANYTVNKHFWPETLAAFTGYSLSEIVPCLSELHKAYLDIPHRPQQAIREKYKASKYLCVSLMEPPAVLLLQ
Substitution	normalised enrichment score
P3T	0.0797
L4G	0.237
D10Y	-0.15
L4N	0.171
P1V	0.426
I11D	0.0769
D10V	0.282
L7Q	0.126
K2N	-0.0496
K6H	0.417
G13T	-0.136
F9D	0.299
K6L	0.232
F9P	0.0361
F9L	0.263
P3W	0.454
I11F	0.143
R8A	0.42
I11N	0.496
L7W	0.45
D10I	-0.54
K2P	0.0241
K6E	-0.145
F9K	0.403
E12A	-0.0559

Set 3 — technique: RNA Bind-n-Seq; molecule type: RNA; sample: in vitro; concentration: 365 nM; relative to: no-protein control; reading: higher = stronger binding
Target: RNA binding protein fox-1 homolog 2, RRM domain, GST-SBP tag (RBFOX2, Homo sapiens, UniProt O43251-10, residues 100-194)
Setting: natural RNA segment, single round, ends assumed
All sequences stand within: GGGAGUUCUACAGUCCGACGAUC … UGGAAUUCUCGGGUGCCAA
Residues (chain): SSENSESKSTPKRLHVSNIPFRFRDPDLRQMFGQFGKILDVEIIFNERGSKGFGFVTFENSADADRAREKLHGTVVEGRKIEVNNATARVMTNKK
Oligonucleotide	RBNS enrichment (R)
AAGGCCUGAUAGAAGGGUCAGGGCAGGCCAGGGGGGUGGGGGGCCGCCCUCAUCAGGCAGCCCCCAGCCCCCUGAGGCCCUGUCCAUCUUCUCCCCACCACCGCCCCGGU	0.182
CAGCACAGGCGCUGGCAGUGGAUACAGCAGGCCUGUCUAGUCUCCCACAGUGGGUUUGGCUGAUUGUAGCCCUGGGCUGUUUUGCCAUGGAACUCUCCAGUGUUCCUAUA	0.89
GCACAGCAGAAAACAGAAUUGAAGUUGGGAAACUCUAGAGUCUGGGCAAAAUGUUUGGUUUUUUCUCUUAAAAAAAAUAACACCCCAUUACCAAAAGAAAAGGUAAGGUG	0.753
CUGUGGGGAGCAGCAUGGGCAAGGAAGACACAGACUCGCAUUACCCUUGGUCACUGUGAUUUCUGUUUUGUUUAAAAAAUUCUUACAAACCUCAGGAAAACUGUGCCCUC	0.724
UAAGGACACGGGCCCCCUUCCGUCCUCGGGCUCCCGGUCCCCUCCUAUUUAUGGGGUCUGACCAACUGCACCCACUCCCUAAUAAAUUCAUUCUCCUUGGGAGCCUCCUU	0.575
ACAAUAUGACAGUAGUACAACAACCUGUGCCCAAAACACUGACAAGAAAUACAGAGUAAAGCUAAAAUAAUUGUUUACCAAUAUUUUGAGAGGUAACAAAUAGGGAGAUA	0.296
AGAGGUAAUAGCAUCUGUGGGACACAGCAGAAUUGUACAAGUGUACAAUUAGUGUGUAGCAGAGCACAGCAGUUACGAGCUUGUAUAACGAGGACUCUGGAUCCAGAUUU	0.335
GUUCAAAGUCAAGACAGGUAAAAGGGCAUUCAUCAUUGUGCCUCAUAUCAGGUUUUGAUGAAUAUAUGUGUGUGUGUGUGUGUGUGUGUGUGUGUGUGUGUAGAGGGAUG	2.6
GGCACGAAGAAAAGAAACAUGAGCUCUCUAGACUUCCUGUAUGUUCCCAACUGUUGGCUAGAUAAUCAUCUGAGGCUAUCAUUAUAGUGCUGAUGUCCAAGACUUAACCA	0.461
AUUUUGAUGCCUUUGAAAUGAUGAAGGGAUUCUACCUGUAUUUUUACUCUUAGAACAGAUACAACUUUAAAGGGUGUCACAACCAAAGGUGGAGUGGAGUGUGGCAUGCA	3.22
GCCUAGCUUACACAGAGCCUGGGUUCAGUCCUUCACACUGUAUAAACUGGGCGAGACAGAGCAUGUUUGCAGUCCUAGCAUUCAGCAGGUAGAGACAGGAAGAUGAGAAG	0.364
GGGGCAUGUGCUGCCUGUUGUUAUGGGUUUUUUUUGCGGGGGGGGUUGCUUUUUUCUGGGGUCUUUGAGCUCCAAAAAAUAAACACUUCCUUUGAGGGAGAGCACACCUG	0.716

Set 4 — target: UBE2J2 UBC core domain (UniProt Q8N2K1); technique: yeast two-hybrid; sample: yeast; setting: mostly zero background; relative to: not given; reading: higher = stronger interaction
B1: RUFY1 RING domain (UniProt Q96T51); chain QALKGHAWLKDDEATHCRQCEKEFSISRRKHHCRNCGHIFCNTCSSNELALPSYPKPVRVCDSCHTLLLQRCSSTAS
B2: HLTF RING domain (UniProt Q14527); chain LILSSGSDEECAICLDSLTVPVITHCAHVFCKPCICQVIQNEQPHAKCPLCRNDIHEDNLLE
B3: BFAR RING domain (UniProt Q9NZS9); chain GPQISVSEFSCHCCYDILVNPTTLNCGHSFCRHCLALWWASSKKTECPECREKWEGFPKVS
B4: MARCHF1 RING domain (UniProt Q8TCQ1); chain TAPRSQSRLSVCPSTQDICRICHCEGDEESPLITPCRCTGTLRFVHQSCLHQWIKSSDTRCCELCKYDFIMETKLKPLRKWE
B5: ZNRF4 RING domain (UniProt Q8WWF5); chain VRTFTWHNDLCAICLDEYEEGDQLKILPCSHTYHCKCIDPWFSQAPRRSCPVCKQSVAATEDSF
B6: NFX1 RING domain (UniProt Q12986); chain IEQLTTEKYECMVCCELVRVTAPVWSCQSCYHVFHLNCIKKWARSPASQADGQSGWRCPACQNVSAHVPNTY
B7: TRIM41 RING domain (UniProt Q8WV44); chain PVQTLQEEAVCAICLDYFTDPVSIGCGHNFCRVCVTQLWGGEDEEDRDELDREEEEEDGEEE
B8: CNOT4 RING domain (UniProt O95628); chain MSRSPDAKEDPVECPLCMEPLEIDDINFFPCTCGYQICRFCWHRIRTDENGLCPACRKPYPED
B9: RNF182 RING domain (UniProt Q8N6D2); chain AESQASDELECKICYNRYNLKQRKPKVLECCHRVCAKCLYKIIDFGDSPQGVIVCPFCRFETCLPDDEV
Target sequence (chain): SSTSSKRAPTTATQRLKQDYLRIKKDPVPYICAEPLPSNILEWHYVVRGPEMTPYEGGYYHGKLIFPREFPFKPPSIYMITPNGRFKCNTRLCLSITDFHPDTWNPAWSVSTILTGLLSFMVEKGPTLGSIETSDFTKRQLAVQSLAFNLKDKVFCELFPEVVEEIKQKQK
Sequence	lacZ reporter activity
B1 (RUFY1 RING domain)	0
ASPKIFQKTKCSICNSALELPSVHFLCGHSFHQHCFESYSESDADCPTCLPENRKVMDMI (VPS11 RING domain (UniProt Q9H270))	0
B2 (HLTF RING domain)	0
LVKDFNPYITCYICKGYLIKPTTVTECLHTFCKTCIVQHFEDSNDCPRCGNQVHETNPLE (PCGF5 RING domain (UniProt Q86SE9))	0
B3 (BFAR RING domain)	0
B4 (MARCHF1 RING domain)	0
FAEQPSVKLCCQLCCSVFKDPVITTCGHTFCRRCALKSEKCPVDNVKLTVVVNNI (TRAF7 RING domain (UniProt Q6Q0C0))	0
B5 (ZNRF4 RING domain)	0
B6 (NFX1 RING domain)	0
B7 (TRIM41 RING domain)	0
B8 (CNOT4 RING domain)	0
B9 (RNF182 RING domain)	0

For quick reference, copied from above (set 2):
Substitution	normalised enrichment score
K2N	-0.0496
K2P	0.0241
F9D	0.299
I11D	0.0769
L4N	0.171
P1V	0.426
F9P	0.0361
D10I	-0.54
E12A	-0.0559
I11N	0.496
L4G	0.237
P3T	0.0797
